# Measurements collected from several papers.
# Parts stem from different laboratories: compare values within a part only.
# UniProt Q8IY84, sequence (whole entry, looked up): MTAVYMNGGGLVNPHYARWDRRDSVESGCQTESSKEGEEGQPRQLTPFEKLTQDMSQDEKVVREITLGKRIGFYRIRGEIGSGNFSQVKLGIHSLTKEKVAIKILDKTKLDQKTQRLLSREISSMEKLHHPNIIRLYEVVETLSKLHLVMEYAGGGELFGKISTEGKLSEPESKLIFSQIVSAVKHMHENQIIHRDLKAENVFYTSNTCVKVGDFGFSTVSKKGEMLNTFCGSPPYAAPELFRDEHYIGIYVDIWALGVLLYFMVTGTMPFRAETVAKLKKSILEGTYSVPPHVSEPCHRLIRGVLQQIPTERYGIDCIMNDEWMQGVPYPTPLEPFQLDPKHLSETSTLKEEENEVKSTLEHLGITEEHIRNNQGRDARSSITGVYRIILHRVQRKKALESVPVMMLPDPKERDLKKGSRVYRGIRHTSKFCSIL
# UniProt Q9UKI8, sequence (whole entry, looked up): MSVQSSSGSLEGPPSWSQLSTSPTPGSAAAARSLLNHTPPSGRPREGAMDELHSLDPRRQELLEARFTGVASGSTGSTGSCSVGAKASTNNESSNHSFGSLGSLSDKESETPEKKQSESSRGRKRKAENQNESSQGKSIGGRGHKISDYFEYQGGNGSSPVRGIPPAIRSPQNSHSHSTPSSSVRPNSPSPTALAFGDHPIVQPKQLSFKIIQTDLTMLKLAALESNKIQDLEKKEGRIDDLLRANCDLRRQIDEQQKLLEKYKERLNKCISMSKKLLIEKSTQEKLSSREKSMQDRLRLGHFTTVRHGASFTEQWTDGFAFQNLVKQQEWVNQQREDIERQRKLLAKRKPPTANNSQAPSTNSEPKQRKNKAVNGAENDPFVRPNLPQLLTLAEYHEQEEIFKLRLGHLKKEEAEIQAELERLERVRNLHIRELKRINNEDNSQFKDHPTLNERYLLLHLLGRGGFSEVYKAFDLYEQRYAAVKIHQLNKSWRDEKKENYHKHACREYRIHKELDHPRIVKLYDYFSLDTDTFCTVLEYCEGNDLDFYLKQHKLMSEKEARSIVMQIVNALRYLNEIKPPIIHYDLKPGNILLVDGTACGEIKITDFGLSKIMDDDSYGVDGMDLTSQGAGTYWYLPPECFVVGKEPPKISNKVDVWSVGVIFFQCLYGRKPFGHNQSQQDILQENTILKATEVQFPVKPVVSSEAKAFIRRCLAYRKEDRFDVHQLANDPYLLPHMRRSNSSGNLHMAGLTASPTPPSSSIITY
# UniProt Q15569, sequence (whole entry, looked up): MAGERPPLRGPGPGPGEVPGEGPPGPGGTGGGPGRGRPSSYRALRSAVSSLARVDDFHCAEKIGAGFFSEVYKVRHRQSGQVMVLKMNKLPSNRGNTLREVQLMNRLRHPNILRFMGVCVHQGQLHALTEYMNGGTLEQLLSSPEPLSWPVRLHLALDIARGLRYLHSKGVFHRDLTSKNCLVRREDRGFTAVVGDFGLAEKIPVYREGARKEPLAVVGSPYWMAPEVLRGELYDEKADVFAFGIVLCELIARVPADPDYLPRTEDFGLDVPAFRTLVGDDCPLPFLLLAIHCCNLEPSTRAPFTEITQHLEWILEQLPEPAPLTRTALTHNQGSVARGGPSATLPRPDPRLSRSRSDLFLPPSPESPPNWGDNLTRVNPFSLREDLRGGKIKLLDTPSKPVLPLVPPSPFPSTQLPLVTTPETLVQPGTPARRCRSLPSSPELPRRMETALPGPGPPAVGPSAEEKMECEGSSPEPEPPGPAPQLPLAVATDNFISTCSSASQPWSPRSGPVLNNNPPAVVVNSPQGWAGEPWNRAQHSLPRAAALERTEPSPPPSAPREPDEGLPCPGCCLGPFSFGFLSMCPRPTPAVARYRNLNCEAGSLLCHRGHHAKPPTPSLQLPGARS
# UniProt Q9UL54, sequence (whole entry, looked up): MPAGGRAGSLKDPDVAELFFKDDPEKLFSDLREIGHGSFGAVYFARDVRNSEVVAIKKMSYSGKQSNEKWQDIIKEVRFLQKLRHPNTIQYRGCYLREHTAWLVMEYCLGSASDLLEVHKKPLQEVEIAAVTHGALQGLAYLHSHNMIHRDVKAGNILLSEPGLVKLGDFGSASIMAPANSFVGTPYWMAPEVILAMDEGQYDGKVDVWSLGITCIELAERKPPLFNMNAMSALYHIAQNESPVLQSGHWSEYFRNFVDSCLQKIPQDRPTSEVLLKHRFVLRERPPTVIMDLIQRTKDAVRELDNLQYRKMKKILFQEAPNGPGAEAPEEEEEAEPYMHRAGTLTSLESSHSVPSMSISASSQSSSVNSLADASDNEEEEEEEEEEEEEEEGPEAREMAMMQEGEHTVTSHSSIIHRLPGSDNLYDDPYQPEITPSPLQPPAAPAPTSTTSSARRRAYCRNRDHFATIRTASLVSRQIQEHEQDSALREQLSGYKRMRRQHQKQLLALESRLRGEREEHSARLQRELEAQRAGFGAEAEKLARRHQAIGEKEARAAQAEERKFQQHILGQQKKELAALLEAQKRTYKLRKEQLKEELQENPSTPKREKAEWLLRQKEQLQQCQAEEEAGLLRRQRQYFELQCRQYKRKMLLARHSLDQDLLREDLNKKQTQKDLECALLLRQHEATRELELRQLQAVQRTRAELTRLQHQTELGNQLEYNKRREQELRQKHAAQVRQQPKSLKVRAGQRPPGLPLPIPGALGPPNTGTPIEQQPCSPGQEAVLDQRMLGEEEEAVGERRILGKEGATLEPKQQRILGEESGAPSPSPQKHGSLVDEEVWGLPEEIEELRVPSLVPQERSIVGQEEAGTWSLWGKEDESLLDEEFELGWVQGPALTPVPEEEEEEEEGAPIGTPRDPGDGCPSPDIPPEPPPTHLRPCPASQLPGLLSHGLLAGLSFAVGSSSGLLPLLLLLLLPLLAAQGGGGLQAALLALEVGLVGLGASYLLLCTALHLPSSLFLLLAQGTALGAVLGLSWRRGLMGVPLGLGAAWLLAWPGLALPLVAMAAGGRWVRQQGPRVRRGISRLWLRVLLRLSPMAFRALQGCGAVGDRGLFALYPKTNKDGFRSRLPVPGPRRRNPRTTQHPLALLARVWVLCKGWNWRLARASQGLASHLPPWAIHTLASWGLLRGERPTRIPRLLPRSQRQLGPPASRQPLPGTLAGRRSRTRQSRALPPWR
# UniProt Q96D53, sequence (whole entry, looked up): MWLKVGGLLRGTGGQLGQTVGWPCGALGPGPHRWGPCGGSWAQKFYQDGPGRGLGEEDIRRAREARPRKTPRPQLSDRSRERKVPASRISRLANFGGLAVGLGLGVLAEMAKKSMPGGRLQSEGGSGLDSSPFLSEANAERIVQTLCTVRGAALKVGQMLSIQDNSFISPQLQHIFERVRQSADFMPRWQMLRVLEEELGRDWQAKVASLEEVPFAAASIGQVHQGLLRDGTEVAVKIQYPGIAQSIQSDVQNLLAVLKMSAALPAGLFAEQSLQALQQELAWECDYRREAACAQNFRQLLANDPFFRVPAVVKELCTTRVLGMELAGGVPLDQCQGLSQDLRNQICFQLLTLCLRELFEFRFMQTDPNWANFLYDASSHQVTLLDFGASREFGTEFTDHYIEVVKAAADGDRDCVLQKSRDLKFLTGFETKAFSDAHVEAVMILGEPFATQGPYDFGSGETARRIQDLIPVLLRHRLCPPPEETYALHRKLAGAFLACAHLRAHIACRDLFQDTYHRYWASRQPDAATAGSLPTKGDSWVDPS
# UniProt Q9P289, sequence (whole entry, looked up): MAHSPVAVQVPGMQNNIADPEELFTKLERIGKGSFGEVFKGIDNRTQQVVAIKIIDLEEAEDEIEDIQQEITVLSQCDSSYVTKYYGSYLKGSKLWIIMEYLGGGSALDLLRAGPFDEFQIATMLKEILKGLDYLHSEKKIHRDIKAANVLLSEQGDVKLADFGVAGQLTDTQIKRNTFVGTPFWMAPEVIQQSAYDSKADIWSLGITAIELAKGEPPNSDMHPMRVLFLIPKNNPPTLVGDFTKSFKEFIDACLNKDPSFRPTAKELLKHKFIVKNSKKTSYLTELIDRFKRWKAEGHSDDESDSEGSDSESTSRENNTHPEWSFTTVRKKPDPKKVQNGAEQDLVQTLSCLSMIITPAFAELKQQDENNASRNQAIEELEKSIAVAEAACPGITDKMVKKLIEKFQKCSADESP

# Set 1 — host: mouse; matrix: microsomes or S9; concentration: 2 µM; time: 0.5 h
SMILES,remaining compound [%]
Cc1cc(C)c(-c2csc(Nc3ncnc4[nH]ncc34)n2)cc1C,5.64
COC(=O)c1ccc2nc(Nc3nc4ccc(F)cc4s3)sc2c1,2.65
O=C(O)c1ccc2c(c1)NC(=O)c1ccccc1S2(=O)=O,96.8
O=C(N[C@@H]1CC[C@H]2Oc3ccccc3N[C@H]2[C@@H]1O)c1ccccn1,2.27
Cc1c(C)n(-c2nccs2)c2ncnc(NCc3cccnc3)c12,3.13
Cc1ccc(S(=O)(=O)NC(=NCc2ccccc2)c2ccc(F)cc2)cc1,1.65
c1ccc(Cn2nnc(C3(c4ccccc4)CCOCC3)n2)cc1,1.56
COc1cc(=O)[nH]cc1C(=O)N[C@@H]1CCO[C@H]1c1c(C)nn(C)c1C,88.2
CC(C)(C)OC(=O)NC1CCN(c2nnc(Cl)c3ccccc23)CC1,1.45
Cc1cc(C)c(NC(=O)CN(C)S(=O)(=O)c2ccc3[nH]c(=O)ccc3c2)c(C)c1,> 100
Cc1nc(-c2ccc(F)cc2)cc2c1sc1ccccc12,0.811
Cc1nnc2c3ccccc3nc(-c3ccccc3Cl)n12,0.487
CC1(C)CC(NC(=O)CCCNc2nc(Cl)nc3[nH]cnc23)CC(C)(C)N1,92.2

# Set 2 — concentration: 1 µM
# Compound: CN1CCN(C(=O)c2ccc(NC(=O)Nc3ccc(N(C)c4ccnc(Nc5ccc(CS(C)(=O)=O)cc5)n4)cc3)cc2)CC1
target,test,setting,how to read,remaining binding [%]
"RPS6KA4 (Homo sapiens, UniProt O75676)",competitive binding scan,C-terminal kinase domain 2,,74
"CSNK1E (Homo sapiens, UniProt P49674)",competitive binding panel,,relative to: vehicle,75
"TESK1 (Homo sapiens, UniProt Q15569)",competitive binding panel,,relative to: vehicle,100
"PRKD3 (Homo sapiens, UniProt O94806)",competitive binding panel,,relative to: vehicle,100
"GRK2 (Homo sapiens, UniProt P25098)",competitive binding panel,,relative to: vehicle,100
"HASPIN (Homo sapiens, UniProt Q8TF76)",competitive binding panel,,relative to: vehicle,92
"DAPK2 (Homo sapiens, UniProt Q9UIK4)",competitive binding panel,,relative to: vehicle,100

# Set 3 — observed: cell-free assay; technique: competition with immobilised ligand; concentration: 1 µM
# Structure (SMILES): Cc1c(NC(=O)c2cc(C(N)=O)nc3cc(F)ccc23)c(C(F)(F)F)nn1Cc1ccc(C(C)(C)C)cc1
target,remaining binding
"MAP2K5 (Homo sapiens, UniProt Q13163)",78%
"TAOK2 (Homo sapiens, UniProt Q9UL54)",100%
"PIM3 (Homo sapiens, UniProt Q86V86)",100%
"RET (Homo sapiens, UniProt P07949)",100%
"Tyrosine-protein kinase ABL1, phosphorylated (ABL1, Homo sapiens, UniProt P00519, F317L)",98%
"CLK3 (Homo sapiens, UniProt P49761)",100%
"Ribosomal protein S6 kinase alpha-1, C-terminal kinase domain (RPS6KA1, Homo sapiens, UniProt Q15418)",100%
"AXL (Homo sapiens, UniProt P30530)",100%
"Tyrosine-protein kinase JAK2, JH1 (JAK2, Homo sapiens, UniProt O60674)",100%
"SIK3 (Homo sapiens, UniProt Q9Y2K2)",91%
"NIM1K (Homo sapiens, UniProt Q8IY84)",100%
"STK26 (Homo sapiens, UniProt Q9P289)",100%
"COQ8B (Homo sapiens, UniProt Q96D53)",70%
"EPHA6 (Homo sapiens, UniProt Q9UF33)",100%
"TBK1 (Homo sapiens, UniProt Q9UHD2)",95%
"TLK1 (Homo sapiens, UniProt Q9UKI8)",100%
"MAP3K13 (Homo sapiens, UniProt O43283)",100%

# Set 4 — observed: enzyme activity; mode: inhibitor; concentration: 0.5 µM; relative to: control
# Target: Receptor-type tyrosine-protein kinase FLT3 (FLT3, Homo sapiens, UniProt P36888)
SMILES,remaining activity [%]
CCCCc1c(-c2ccc(O)cc2)[nH]c2nccnc12,45.3
Clc1ccc(Nc2nnc(Cc3ccncc3)c3ccccc23)cc1,92
NC(=O)c1ccc(-c2nc(-c3ccc4c(c3)OCCO4)c(-c3ccccn3)[nH]2)cc1,88.7
O=C1c2ccccc2-c2nc3nnnn3nc21,100
CCN(CC)CCCCN1c2ccccc2Oc2ccc(Cl)cc21,99
FC(F)(F)c1ccc(/C=C/c2nc(COc3ccc(CCCCn4ccnn4)cc3)co2)cc1,87.8
O=c1c(-c2ccc(F)cc2)c(-c2ccncc2)[nH]n1-c1ccc(Cl)cc1,92.8
Nc1nc(Nc2ccc(S(N)(=O)=O)cc2)nn1C(=S)Nc1c(F)cccc1F,1.07
O=C1NC(=O)/C(=C/c2ccc3c(c2)OC(F)(F)O3)S1,92.9
CC(C)(C)c1nc2c3cc[nH]c(=O)c3c3cc(F)ccc3c2[nH]1,13.6
NC(=O)c1cccc(-c2cc(Nc3ccc(OC(F)(F)F)cc3)ncn2)c1,98.9
O=Nc1c(-c2c(O)[nH]c3ccccc23)[nH]c2ccccc12,2.16
O=C(c1ccccc1)c1ccc(N2CCOCC2)cc1O,90.6
CC(C)N(CCC(=O)c1ccc2ccccc2c1)Cc1ccccc1,97.5
N#C/C(=C(/N)SC1C=CC=CC1)c1cccc(C(O)c2ccncc2)c1 (stereo not shown),112
O=C(O)/C=C/c1cc(Br)c(Br)c(Br)c1Br,79
CC(C)n1cnc2c(Nc3cccc(Cl)c3)nc(NCCO)nc21,15.1
CNc1cc2c(Nc3cccc(Br)c3)ncnc2cn1,71.2
N#CC(c1ccnc(NCCc2cccnc2)n1)c1nc2ccccc2s1 (stereo not shown),58.2
c1cc(-c2cnn3cc(-c4ccc(OCCN5CCCCC5)cc4)cnc23)ccn1,0.164
C[C@@H](N)[C@H]1CC[C@H](C(=O)Nc2ccncc2)CC1,90.8

# A few entries again (set 1):
SMILES,remaining compound [%]
CC1(C)CC(NC(=O)CCCNc2nc(Cl)nc3[nH]cnc23)CC(C)(C)N1,92.2
Cc1nnc2c3ccccc3nc(-c3ccccc3Cl)n12,0.487
Cc1cc(C)c(-c2csc(Nc3ncnc4[nH]ncc34)n2)cc1C,5.64
Cc1ccc(S(=O)(=O)NC(=NCc2ccccc2)c2ccc(F)cc2)cc1,1.65
Cc1nc(-c2ccc(F)cc2)cc2c1sc1ccccc12,0.811
